Assay results of several laboratories.
Each numbered part is a random draw from the data of one study; scales do not carry over between parts. Substitutions count along the parent as printed.
UniProt P61075, sequence (whole entry, looked up): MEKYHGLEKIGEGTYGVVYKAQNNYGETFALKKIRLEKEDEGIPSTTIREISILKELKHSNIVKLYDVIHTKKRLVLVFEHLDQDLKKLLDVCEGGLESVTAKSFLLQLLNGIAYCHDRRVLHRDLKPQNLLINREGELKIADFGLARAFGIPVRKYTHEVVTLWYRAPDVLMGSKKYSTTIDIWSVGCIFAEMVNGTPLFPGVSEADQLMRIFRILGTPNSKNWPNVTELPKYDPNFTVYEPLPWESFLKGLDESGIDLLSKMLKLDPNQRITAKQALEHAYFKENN
UniProt P9WI81, sequence (whole entry, looked up): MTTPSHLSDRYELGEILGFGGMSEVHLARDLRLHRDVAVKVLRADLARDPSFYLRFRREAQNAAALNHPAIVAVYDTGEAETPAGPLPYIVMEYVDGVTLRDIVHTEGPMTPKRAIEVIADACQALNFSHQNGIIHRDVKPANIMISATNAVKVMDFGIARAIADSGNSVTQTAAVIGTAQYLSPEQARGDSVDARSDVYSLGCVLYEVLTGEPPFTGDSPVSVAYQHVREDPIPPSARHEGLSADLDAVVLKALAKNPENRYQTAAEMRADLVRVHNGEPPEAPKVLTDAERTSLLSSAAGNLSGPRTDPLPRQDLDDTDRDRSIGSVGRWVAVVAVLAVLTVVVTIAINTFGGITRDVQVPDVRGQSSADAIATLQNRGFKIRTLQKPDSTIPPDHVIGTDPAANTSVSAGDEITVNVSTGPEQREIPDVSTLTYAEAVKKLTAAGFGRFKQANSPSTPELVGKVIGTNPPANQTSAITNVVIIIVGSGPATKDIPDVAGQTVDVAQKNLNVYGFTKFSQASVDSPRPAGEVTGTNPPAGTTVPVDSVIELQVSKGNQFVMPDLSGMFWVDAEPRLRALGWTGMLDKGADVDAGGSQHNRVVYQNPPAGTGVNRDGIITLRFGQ
UniProt Q9NSY1, sequence (whole entry, looked up): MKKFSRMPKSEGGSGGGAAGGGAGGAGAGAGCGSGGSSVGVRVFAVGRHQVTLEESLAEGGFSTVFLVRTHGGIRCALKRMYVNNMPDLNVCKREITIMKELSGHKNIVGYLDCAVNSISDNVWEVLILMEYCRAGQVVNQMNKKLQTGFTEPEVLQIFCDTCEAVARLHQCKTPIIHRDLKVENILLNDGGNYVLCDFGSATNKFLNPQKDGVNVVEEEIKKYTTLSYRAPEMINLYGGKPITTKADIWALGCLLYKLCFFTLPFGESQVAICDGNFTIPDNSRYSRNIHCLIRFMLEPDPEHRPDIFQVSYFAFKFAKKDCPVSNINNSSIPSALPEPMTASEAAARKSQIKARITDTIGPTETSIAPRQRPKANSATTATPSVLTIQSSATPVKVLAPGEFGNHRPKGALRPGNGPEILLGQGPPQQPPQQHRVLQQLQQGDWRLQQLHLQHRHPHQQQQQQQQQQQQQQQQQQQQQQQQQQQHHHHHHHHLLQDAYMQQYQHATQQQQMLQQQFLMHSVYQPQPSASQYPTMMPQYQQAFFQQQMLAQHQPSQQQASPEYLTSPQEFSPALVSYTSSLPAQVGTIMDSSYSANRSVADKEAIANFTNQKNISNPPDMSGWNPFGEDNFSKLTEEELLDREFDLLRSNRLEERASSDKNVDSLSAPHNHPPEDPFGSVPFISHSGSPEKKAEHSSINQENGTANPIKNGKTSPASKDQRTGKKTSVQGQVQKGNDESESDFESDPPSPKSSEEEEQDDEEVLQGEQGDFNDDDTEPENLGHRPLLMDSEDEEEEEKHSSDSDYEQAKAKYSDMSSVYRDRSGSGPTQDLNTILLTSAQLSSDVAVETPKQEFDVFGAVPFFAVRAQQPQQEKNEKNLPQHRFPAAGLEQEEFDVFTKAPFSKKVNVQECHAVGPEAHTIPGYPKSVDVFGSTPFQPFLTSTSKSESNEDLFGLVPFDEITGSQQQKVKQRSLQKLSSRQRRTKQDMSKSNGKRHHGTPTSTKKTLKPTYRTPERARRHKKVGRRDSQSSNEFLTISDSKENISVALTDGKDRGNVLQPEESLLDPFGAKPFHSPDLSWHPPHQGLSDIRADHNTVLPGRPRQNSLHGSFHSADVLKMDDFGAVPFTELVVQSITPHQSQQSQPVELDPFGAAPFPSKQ
UniProt P11229, sequence (whole entry, looked up): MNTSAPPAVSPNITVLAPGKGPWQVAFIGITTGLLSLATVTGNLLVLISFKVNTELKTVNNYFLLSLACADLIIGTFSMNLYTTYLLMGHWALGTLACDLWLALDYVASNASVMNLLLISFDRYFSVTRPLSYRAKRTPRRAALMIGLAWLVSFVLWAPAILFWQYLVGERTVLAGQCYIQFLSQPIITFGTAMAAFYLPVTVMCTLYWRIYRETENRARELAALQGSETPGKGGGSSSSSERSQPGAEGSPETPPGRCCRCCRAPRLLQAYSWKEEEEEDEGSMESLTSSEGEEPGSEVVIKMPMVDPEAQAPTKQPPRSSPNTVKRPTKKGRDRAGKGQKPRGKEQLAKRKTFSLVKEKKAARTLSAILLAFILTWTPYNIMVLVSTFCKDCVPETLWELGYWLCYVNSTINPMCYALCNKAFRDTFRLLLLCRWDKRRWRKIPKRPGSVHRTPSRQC

Series 1 — effect on: peptide-MHC binding; molecule type: peptide; reading: direction not given
Target: HLA class I histocompatibility antigen, A alpha chain, allele A*80:01 (Homo sapiens, UniProt P04439)
Sequence | z-score of log IC50
ALRRRTGTR | 0.38
AYDHGNVIL | 0.38
FSDVSHWWQ | 0.38
FRDEAGAIL | 0.38
FLYDRLAST | 0.38
FPSNMMVVT | 0.38
FHIVNQESL | 0.38
KVVPRRKAK | 0.38

Series 2 — target: CCNF, cyclin fold, Cln2 fusion (human); technique: yeast growth competition, sequencing; matrix: yeast; setting: strong parent motif; baseline: not given; reading: higher = stronger binding
Starting sequence: viral docking peptide; YKVKRRLVFGADD; partner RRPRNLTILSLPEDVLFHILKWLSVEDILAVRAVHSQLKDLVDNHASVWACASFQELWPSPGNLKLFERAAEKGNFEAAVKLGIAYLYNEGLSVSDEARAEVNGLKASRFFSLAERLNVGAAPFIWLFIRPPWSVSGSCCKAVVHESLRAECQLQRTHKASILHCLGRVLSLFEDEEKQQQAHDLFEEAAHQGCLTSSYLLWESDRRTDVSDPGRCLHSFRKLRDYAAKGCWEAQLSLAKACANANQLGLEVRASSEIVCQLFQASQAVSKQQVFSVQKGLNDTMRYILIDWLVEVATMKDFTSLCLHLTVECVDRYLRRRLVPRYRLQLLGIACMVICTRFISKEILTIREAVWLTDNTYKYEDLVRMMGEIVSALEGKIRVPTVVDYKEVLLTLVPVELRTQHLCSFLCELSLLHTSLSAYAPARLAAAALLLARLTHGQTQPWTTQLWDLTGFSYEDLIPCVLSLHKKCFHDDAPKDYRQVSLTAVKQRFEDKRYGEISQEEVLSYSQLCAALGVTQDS
Substitution | normalised enrichment score
YKVKRRLVQGADD [F9Q] | 1.11
YFVKRRLVFGADD [K2F] | 9.01
YKVFRRLVFGADD [K4F] | 7.49
YKVKRRLVTGADD [F9T] | 3.47
YEVKRRLVFGADD [K2E] | 8.16
YKVKPRLVFGADD [R5P] | 0.433
YKVKERLVFGADD [R5E] | 0.532
YKVKRRLVSGADD [F9S] | 0.847

Single results of other studies
Structure (SMILES) | tested on | test | setting | how to read | endpoint | result
CCC(=N\O)/C(C)=C/c1ccc(F)cc1 | CRK2 (Plasmodium falciparum, UniProt P61075) | cell-free assay, competition with immobilised ligand | 1 µM |  | remaining binding | 84%
CC(C)CC(N(C)C)C1(c2ccc(Cl)cc2)CCC1.Cl (stereo not drawn) | Sarcocystis neurona | parasite growth | 10 µM, second screen | baseline: untreated | log2 fold change | 0.51
Cc1cc(NC(=O)c2cccc(S(F)(F)(F)(F)F)c2)cc(-n2ccn3nc(-c4cccnc4)cc23)c1 | pknB (Mycobacterium tuberculosis, UniProt P9WI81) | cell-free assay, competition with immobilised ligand | 1 µM |  | remaining binding | 63.7%
O=C(NCc1ncc(C(F)(F)F)cc1Cl)c1ccc2c(c1)C1(CCS(=O)(=O)CC1)[C@H](C1CC1)N2S(=O)(=O)c1ccc(F)cc1 | BMP2K (Homo sapiens, UniProt Q9NSY1) | cell-free assay, competition with immobilised ligand | 1 µM |  | remaining binding | 96%
CCS(=O)(=O)c1cc2cc(C[C@](O)(CC(C)(C)c3ccc(F)cc3C(N)=O)C(F)(F)F)[nH]c2cn1 | CHRM1 (Homo sapiens, UniProt P11229) | ligand displacement | 10 µM |  | inhibition | -22.7%
